Measurements pooled from the literature.
Each numbered part is a random draw from the data of one study; scales do not carry over between parts. Substitutions count along the parent as printed.

Block 1
Target: TAR DNA-binding protein 43, full length, His tag (TARDBP, Homo sapiens, UniProt Q13148, residues 1-414)
Method: RNA Bind-n-Seq
Molecule type: RNA
Sample: in vitro
Concentration: 20 nM
Setting: 6-mer, flanks averaged, single round
With: 150 mM LiCl
Baseline: input library
Reading: higher = stronger binding
Quantity: 6-mer enrichment (R)
CGGUAA: 0.902
GCAAUU: 0.926
GCUUAU: 0.975
GUUUGC: 1.25
AGCCAU: 0.877
CGCCGU: 0.906
GGUCAA: 0.882
CGCUCA: 0.839

Block 2
Target: Cyclic AMP-responsive element-binding protein 1, full length (CREB1, Homo sapiens, UniProt P16220, residues 1-327)
UniProt P16220, sequence (whole entry, looked up): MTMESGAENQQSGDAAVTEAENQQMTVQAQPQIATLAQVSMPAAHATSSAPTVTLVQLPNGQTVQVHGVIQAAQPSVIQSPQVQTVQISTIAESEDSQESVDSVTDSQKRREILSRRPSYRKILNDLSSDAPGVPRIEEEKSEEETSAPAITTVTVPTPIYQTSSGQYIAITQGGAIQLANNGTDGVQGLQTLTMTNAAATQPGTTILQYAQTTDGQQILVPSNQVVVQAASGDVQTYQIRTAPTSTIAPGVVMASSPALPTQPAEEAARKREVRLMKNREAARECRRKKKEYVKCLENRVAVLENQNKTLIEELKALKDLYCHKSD
Method: protein-binding microarray
Molecule type: hairpin DNA
Sample: in vitro
Concentration: not given
Setting: whole hairpin DNA, median over replicate spots
Baseline: not given
Reading: higher = stronger binding
Quantity: median fluorescence
Constant ends, left off below: GAGGCCG … CGGCCTCACACTC
GCTAACGTCAGCCTCCTGGCTGACGTTAGC: 3940 a.u.
GATGACGTCAGCCTCCTGGCTGACGTCATC (5mC at 38): 22900 a.u.
ACGACGACGTGCCTCCTGGCACGTCGTCGT (5mC at 9 15 29 35): 3390 a.u.
CATGACGTCAGCCTCCTGGCTGACGTCATG (5mC at 8): 20000 a.u.
ACGCGGTCGTGCCTCCTGGCACGACCGCGT (5mC at 9 11 15 29 35): 2830 a.u.
GCTGACGTCGGCCTCCTGGCCGACGTCAGC (5mC at 16 28): 5210 a.u.
GCTGACGTCAGCCTCCTGGCTGACGTCAGC (5mC at 38): 12200 a.u.
GCTGCCGTCAGCCTCCTGGCTGACGGCAGC: 2960 a.u.

Block 3
Target: CCNA2, cyclin fold, Cln2 fusion (human)
Method: yeast growth competition, sequencing
Sample: yeast
Setting: strong parent motif
Baseline: not given
Reading: higher = stronger binding
Quantity: normalised enrichment score
Starting sequence: viral docking peptide; KGVKRKLFAEDSS
V3R: 1.69
K6T: 5.47
L7Q: 0.699
S12N: 6.35
A9H: 5.92
G2H: 6.41
G2T: 6.31
G2L: 6.13
A9R: 6.08
E10L: 5.7
G2C: 6.77
D11C: 6.15
A9V: 6.26
D11R: 5.64
D11P: 6.33
G2M: 6
G2Q: 6.4

Block 4
Target: Transcription factor SOX-2, HMG box (Sox2, Mus musculus, UniProt P48432, residues 41-119)
UniProt P48432, sequence (41-119, looked up): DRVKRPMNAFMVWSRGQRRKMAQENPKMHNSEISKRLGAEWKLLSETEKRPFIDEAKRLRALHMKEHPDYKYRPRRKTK
Method: Spec-seq
Molecule type: double-stranded DNA, one strand shown
Sample: in vitro
Concentration: not given
Setting: whole probe, mean of replicates
Baseline: not given
Reading: lower = stronger binding
Quantity: relative binding energy
Constant ends, left off below: GAGTCGTCTCGTCAGCAC … CCGTAGAGCACTCAGGTC
TGACGTT: 1.06 ln ratio
CGTTGTT: -1.37 ln ratio
CATACGA: 0.018 ln ratio
TGCCGTT: 1.1 ln ratio
AACTGTT: -0.812 ln ratio
GTCTGTT: 0.128 ln ratio
AGAGGTT: 0.331 ln ratio
GTTAGTT: 0.547 ln ratio

Some of these lines once more (block 2):
GCTAACGTCAGCCTCCTGGCTGACGTTAGC: 3940 a.u.
GCTGACGTCGGCCTCCTGGCCGACGTCAGC (5mC at 16 28): 5210 a.u.
GCTGACGTCAGCCTCCTGGCTGACGTCAGC (5mC at 38): 12200 a.u.
GCTGCCGTCAGCCTCCTGGCTGACGGCAGC: 2960 a.u.
ACGACGACGTGCCTCCTGGCACGTCGTCGT (5mC at 9 15 29 35): 3390 a.u.
